Measured values from different studies.
Protocols differ between the studies behind these lines. Values joined by “and” are separate records of one study, mostly repeats; a detail may differ. ± gives the spread as reported.

| SMILES | cell line | test | test system | setting | scale | quantity | result |
| --- | --- | --- | --- | --- | --- | --- | --- |
| CC[C@H](C)[C@H](NC(=O)CN)C(=O)NCC(=O)N[C@@H](C)C(=O)N[C@H](C(=O)N[C@@H](CC(C)C)C(=O)N[C@@H](CCCCN)C(=O)N[C@H](C(=O)N[C@@H](CC(C)C)C(=O)N[C@H](C(=O)N[C@H](C(=O)NCC(=O)N[C@@H](CC(C)C)C(=O)N1CCC[C@H]1C(=O)N[C@@H](C)C(=O)N[C@@H](CC(C)C)C(=O)N[C@H](C(=O)N[C@@H](CO)C(=O)N[C@@H](Cc1c[nH]c2ccccc12)C(=O)N[C@H](C(=O)N[C@@H](CCCCN)C(=O)N[C@@H](CCCNC(=N)N)C(=O)N[C@@H](CCCCN)C(=O)N[C@@H](CCCNC(=N)N)C(=O)N[C@@H](CCC(N)=O)C(=O)N[C@@H](CCC(N)=O)C(N)=O)[C@@H](C)CC)[C@@H](C)CC)[C@@H](C)O)[C@@H](C)O)C(C)C)C(C)C | HEK-293T | cytotoxicity, MTT | – | 4 h | – | IC20 | 2 µM |
| Clc1cc2oc3cc(Cl)c(Cl)c(Cl)c3c2cc1Cl | Caco-2 monolayer | GC-HRMS | static Transwell | 0.2 ng/mL, 24 h, 1% DMSO, congener mixture | – | mass balance | 86 ± 1% |
| CC[C@H](C)[C@H](N)C1=N[C@H](C(=O)N[C@@H](Cc2ccccc2)C(=O)N[C@H](CCC(=O)O)C(=O)N[C@H](C(=O)N[C@H]2CCCCNC(=O)[C@H](CC(N)=O)NC(=O)[C@@H](CC(=O)O)NC(=O)[C@H](Cc3c[nH]cn3)NC(=O)[C@@H](Cc3ccccc3)NC(=O)[C@H]([C@@H](C)CC)NC(=O)[C@@H](CCCN)NC2=O)[C@@H](C)CC)CS1 | sheep red blood cells | – | – | 128 µg/mL, 20 h, 37 °C | reference: Triton X-100 0.1% | hemolysis | 0% |
| C#CC[C@H](NC(=O)CNC(=O)[C@H](CO)NC(=O)[C@@H]1CCCCNC(=O)CCCC(=O)N[C@@H](CCSC)C(=O)N[C@@H](Cc2c[nH]c3ccccc23)C(=O)N2CCC[C@H]2C(=O)N[C@@H](Cc2c[nH]cn2)C(=O)N[C@@H](CCCNC(=N)N)C(=O)N[C@@H](C(C)C)C(=O)N[C@@H]([C@@H](C)O)C(=O)N[C@@H](C)C(=O)N(C)[C@@H](C)C(=O)N1)C(=O)O | HeLa HaloTag-GFP-Mito | cell penetration, chloroalkane penetration | – | 4 h | – | CP50 | 1.26 ± 0.13 µM |
| CC(C)C[C@H](NC(=O)[C@H](CCCCN)NC(=O)[C@H](CC(C)C)NC(=O)[C@H](CCCCN)NC(=O)[C@H](CC(C)C)NC(=O)[C@H](CCCCN)NC(=O)[C@H](C)NC(=O)[C@@H](NC(=O)[C@H](CC(C)C)NC(=O)[C@H](CCCCN)NC(=O)[C@H](CC(C)C)NC(=O)[C@H](CCCCN)NC(=O)[C@H](CC(C)C)NC(=O)[C@H](CCCCN)NC(=O)[C@@H](N)CC(C)C)[C@@H](C)O)C(N)=O | HaCaT | propidium iodide staining | – | – | – | lowest membrane-disrupting concentration | 25 µM |
| O=C(CN1CCN(c2cc3c(cc2F)c(=O)c(C(=O)O)cn3C2CC2)CC1)Nc1ccc(Cl)cc1 | Hec50co LOF p53 | MTS | – | 10 µM, 72 h | – | viability | 99.6 ± 0.4% |
| CCCCn1cc(C(=O)O)c(=O)c2cc(F)c3c(nnn3-c3cccc(Cl)c3)c21 | HT-29 | cell growth or viability, SRB | – | – | – | IC50 | 144 µM |
| CC(C)(C)[Si](C)(C)OC[C@H]1O[C@@H](n2cc(Cl)c(=O)[nH]c2=O)[C@H](I)[C@@H](O[Si](C)(C)C(C)(C)C)[C@@H]1O[Si](C)(C)C(C)(C)C | Vero | MTT | – | concentration not given | – | cytotoxicity | toxic |
| CC(C)=C1CC[C@]23CO[C@H](C2)[C@@](O)(C(=O)O)CC[C@@H]13 | SK-MEL-1 | CellTiter-Glo | – | up to 500 µM, 72 h | – | cytotoxicity | not toxic |
| CN1CC23C4C5CC5C5C4C4C2C2CC2C4C53C1 (stereo not shown) | dog cells | cytotoxicity | – | 3 (unit not given) | – | CC50 | ≥ 20 µM |
| Clc1cc2oc3cc(Cl)c(Cl)cc3c2cc1Cl | Caco-2 monolayer | GC-HRMS | static Transwell | 0.2 ng/mL, 24 h, 1% DMSO, congener mixture | – | mass balance | 75 ± 1% |
| C#CC[C@H](NC(=O)CNC(=O)[C@H](CO)NC(=O)[C@H](CCCCN)NC(=O)[C@H](C)N(C)C(=O)[C@H](C)NC(=O)[C@@H](NC(=O)[C@@H](NC(=O)[C@H](CCCNC(=N)N)NC(=O)[C@H](Cc1c[nH]cn1)NC(=O)[C@@H]1CCCN1C(=O)[C@H](Cc1c[nH]c2ccccc12)NC(=O)[C@@H](N)CCSC)C(C)C)[C@@H](C)O)C(=O)O | HeLa HaloTag-GFP-Mito | cell penetration, chloroalkane penetration | – | 4 h | – | CP50 | 8.82 ± 0.81 µM |
| CCCCCCCCCCCCCC(=O)Nc1ccccc1SSc1ccccc1NC(=O)CCCCCCCCCCCCC | HaCaT | MTT | – | up to 10 mg/mL | – | cytotoxicity | not toxic |
| CC(C)(CO)NCC1=C(O)C(=O)c2ccccc2C1=O | HepG2 cells | MTT | – | concentration not given | – | cytotoxicity | toxic |
| C1CC2C3C4C5CCC4C24CNCC54C13 | dog cells | cytotoxicity | – | 3 (unit not given) | – | CC50 | ≥ 100 µM |
| CCCCn1cc(C(=O)O)c(=O)c2cc(F)c3c(nnn3-c3ccccc3Cl)c21 | MCF7 | cell growth or viability, SRB | – | – | – | IC50 | 74.3 µM |

| SMILES | cell line | test | test system | setting | scale | quantity | result |
| --- | --- | --- | --- | --- | --- | --- | --- |
| N=C(N)N1CC23C4C=CC5C4C4C2C=CC4C53C1 | dog cells | cytotoxicity | – | 3 (unit not given) | – | CC50 | > 100 µM |
| Cc1cc(O)cc(C)c1C[C@H](N)C(=O)N[C@H](CCCNC(=N)N)C(=O)N[C@H]1Cc2ccccc2CN(CCC(N)=O)C1=O | brain-like endothelial cells with pericytes | – | human in vitro BBB model | 200 µM, 2 h, 37 °C | – | Papp (apical to basolateral) | 13.7 ×10⁻⁶ cm/s |
| Clc1c(Cl)c(Cl)c2c(c1Cl)Oc1c(Cl)c(Cl)c(Cl)c(Cl)c1O2 | Caco-2 monolayer | – | dynamic gut-on-a-chip | 0.2 ng/mL, 24 h, 1% DMSO | reference: exposure | cellular fraction | 61% |
| CCN(CCCCOc1ccc(CCC(=O)N2CCC(Cc3ccccc3)CC2)cc1OC)Cc1ccccc1 | Caco-2 monolayer | – | – | 120 min, over tested concentrations | – | efflux ratio | > 1.2 |
| Clc1cc2c(cc1Cl)Oc1c(Cl)c(Cl)c(Cl)c(Cl)c1O2 | Caco-2 monolayer | GC-HRMS | static Transwell | 0.2 ng/mL, 24 h, 1% DMSO, congener mixture | – | mass balance | 84 ± 2% |
| CC[C@H](C)[C@H](NC(=O)[C@H](CCCCN)NC(=O)[C@H](CCCCN)NC(=O)[C@H](Cc1ccccc1)NC(=O)[C@H](Cc1ccccc1)NC(=O)[C@H](CCCCN)NC(=O)[C@H](CCCCN)NC(=O)[C@H](Cc1ccccc1)NC(=O)[C@H](CCCNC(=N)N)NC(=O)[C@@H](N)CCCCN)C(=O)N[C@@H](CCCCN)C(=O)N[C@@H](CCCCN)C(=O)N[C@@H](CO)C(=O)N[C@H](C(=O)N[C@@H](CCCCN)C(=O)N[C@@H](CCCCN)C(=O)N[C@@H](CCCNC(=N)N)C(=O)N[C@H](C(=O)N[C@@H](CCCCN)C(=O)N[C@@H](CCCCN)C(=O)N[C@@H](CC(C)C)C(=O)N[C@@H](Cc1ccccc1)C(=O)N[C@@H](CCCCN)C(=O)N[C@@H](CCCCN)C(=O)N1CCC[C@H]1C(=O)N[C@@H](CCCNC(=N)N)C(=O)N[C@H](C(=O)N[C@H](C(=O)N1CCC[C@H]1C(=O)N[C@H](C(=O)N[C@@H](CO)C(=O)N[C@H](C(=O)N1CCC[C@H]1C(=O)N[C@@H](Cc1ccccc1)C(=O)O)[C@@H](C)CC)[C@@H](C)CC)[C@@H](C)CC)C(C)C)C(C)C)C(C)C | L02 | cytotoxicity, MTT | – | 48 h | – | IC50 | > 128 µg/mL |
| CC1N=C(CCCCCCCCCCC2=CC(CCCCCCCCCCC3=NC(C)C(O)CC3)C3CCCN3C2)CCC1O (stereo not shown) | PMA-differentiated THP-1 | cytotoxicity, Neutral Red | – | – | – | IC90 | > 20 µg/mL |
| C1=[N+]2CCCC[N+]3=Cc4ccc5[n]4[Au-]23[n]2c1ccc2-c1nc2ccccc2nc1-5.F[P-](F)(F)(F)(F)F | renal cancer cell lines | – | – | NCI60 panel mean | – | CC50 | 89 µM |
| Cc1cc(O)cc(C)c1C[C@H](NC(=O)[C@H](N)CCCNC(=N)N)C(=O)N[C@@H](CCCN)C(=O)N[C@@H](Cc1ccccc1)C(N)=O | HeLa 705 | WST-1 | – | up to 100 µM, 24 h | reference: untreated | viability | no effect |
| CCCCn1cc(C(=O)O)c(=O)c2cc(F)c(Nc3ccccc3Cl)c([N+](=O)[O-])c21 | HT-29 | cell growth or viability, SRB | – | – | – | IC50 | 191 µM |
| Cc1c(Br)cnc2c1NC(=O)c1cccnc1N2C1CC1 | pooled primary human hepatocytes | inducer, qPCR, refers to: CYP3A4 | – | 100 µM, 72 h | reference: DMSO | mRNA fold change | 11 fold |
| CCCCn1cc(C(=O)O)c(=O)c2cc(F)c(Nc3cccc(Cl)c3)c([N+](=O)[O-])c21 | SW480 | cell growth, SRB | – | 72 h | – | IC50 | 261 ± 19.1 µg/mL |
| CC(C)C[C@H](NC(=O)[C@H](CCCNC(=N)N)NC(=O)[C@H](Cc1ccccc1)NC(=O)[C@H](Cc1ccccc1)NC(=O)[C@@H](NC(=O)[C@H](CO)NC(=O)[C@H](CO)NC(=O)[C@H](CC(=O)O)NC(=O)[C@H](CO)NC(=O)[C@H](CO)NC(=O)[C@H](CC(=O)O)NC(=O)[C@H](CO)NC(=O)[C@H](CO)NC(=O)[C@H](CC(=O)O)NC(=O)[C@H](CO)NC(=O)[C@H](CO)NC(=O)[C@H](CC(=O)O)NC(=O)[C@H](CO)NC(=O)[C@H](CO)NC(=O)[C@H](CC(=O)O)NC(=O)[C@H](CO)NC(=O)[C@H](CO)NC(=O)[C@H](CC(=O)O)NC(=O)[C@H](CO)NC(=O)[C@H](CO)NC(=O)[C@H](CC(=O)O)NC(=O)[C@H](CO)NC(=O)[C@H](CO)NC(=O)[C@@H](N)CC(=O)O)[C@@H](C)O)C(=O)N[C@@H](Cc1ccccc1)C(=O)N[C@@H](CC(N)=O)C(=O)N[C@@H](CCCNC(=N)N)C(=O)N[C@@H](C)C(=O)N[C@@H](CCCCN)C(=O)N[C@@H](CCCNC(=N)N)C(=O)N[C@@H](Cc1c[nH]cn1)C(=O)N[C@@H](Cc1c[nH]cn1)C(=O)NCC(=O)N[C@@H](Cc1ccc(O)cc1)C(=O)N[C@@H](CCCCN)C(=O)N[C@@H](CCCNC(=N)N)C(=O)N[C@@H](CCCCN)C(=O)N[C@@H](Cc1ccccc1)C(=O)N[C@@H](Cc1c[nH]cn1)C(=O)O | MC3T3-E1 | CCK-8 | – | up to 2 × MBC, 24 h | reference: untreated | cell viability | no effect |
| CCCCn1cc(C(=O)O)c(=O)c2cc(F)c(Nc3cccc(Cl)c3)c(N)c21 | MCF7 | cell growth or viability, SRB | – | – | – | IC50 | 22 µM and 21.6 µM |
| CNC(=O)c1cc(Oc2ccc(NC(=O)c3ccc(-c4cccc(COC(=O)CCC(=O)OC5OC6OC7(C)CCC8C(C)CCC(C5C)C68OO7)c4)cn3)cc2)ccn1 (stereo not shown) | LO2 normal hepatocytes | MTT | – | – | reference: artesunate cytotoxicity over compound cytotoxicity | selectivity ratio | 2 |

A few entries again:
| SMILES | cell line | test | test system | setting | scale | quantity | result |
| --- | --- | --- | --- | --- | --- | --- | --- |
| Cc1cc(O)cc(C)c1C[C@H](NC(=O)[C@H](N)CCCNC(=N)N)C(=O)N[C@@H](CCCN)C(=O)N[C@@H](Cc1ccccc1)C(N)=O | HeLa 705 | WST-1 | – | up to 100 µM, 24 h | reference: untreated | viability | no effect |
| N=C(N)N1CC23C4C=CC5C4C4C2C=CC4C53C1 | dog cells | cytotoxicity | – | 3 (unit not given) | – | CC50 | > 100 µM |
